Published values collected from several papers.
Compare with care: the assays were run in different laboratories. ± marks the error that the study gave.

With CC(=O)c1c(C)c2cnc(Nc3ccc(C4CCN(CCS(C)(=O)=O)CC4)cn3)nc2n(C2CCCC2)c1=O the clearance was 1780 mL/min (human patients, plasma; oral, 100 mg twice daily, day 21 multiple doses, together with: fulvestrant).
Under “Cmax at steady state”, O[C@H]1CCCN[C@@H]1CCCn1cnc2c(Cl)c(Cl)ccc21 is recorded as 326 ng/mL (healthy humans, plasma; oral, 150 mg, together with: pirfenidone 600 mg).
Under “elimination rate constant”, COc1cc2c(cc1OC)CN(CCc1ccc(NC(=O)c3cccc4c(=O)c5cccc(OC)c5[nH]c34)cc1)CC2 is recorded as 2.42e-05 s⁻¹ (CD-1 mouse, male, lung; intraperitoneal, 1 mg/kg).
The toxicity of CNc1cc(-c2ccnc(Nc3ccc(N4CCN(C)CC4)c(C(F)(F)F)c3)n2)ccn1 is reported as 0% (zebrafish embryos; 50 µM, 5 d).
For COc1cc(C[C@@H](C)N)c(OC)cc1I, the IC50 was 7.94 µM (Plasmodium falciparum; 7G8).
For O=S(=O)([O-])C(F)(F)C(F)(F)C(F)(F)C(F)(F)C(F)(F)C(F)(F)C(F)(F)C(F)(F)F.[K+], “ratio, liver weight, to body weight” read “increased” (male C57BL/6J mice, EtOH-fed; dose not given; relative to: efavirenz and pair-fed).
Under “elevated AST adverse events”, Nc1nc2cc(-c3ccc4ncc(C(=O)N5CCOCC5)n4c3)ccc2o1 is recorded as 42% (human, advanced solid tumours; 100–300 mg once daily).
Under “grade 1 or 2 bone pain”, COc1cc2c(Oc3ccc4[nH]c(C)cc4c3F)ccnc2cc1OCC1(N)CC1 is recorded as 25% (paediatric recurrent refractory sarcoma; 10 mg).
Under “patients with adverse event”, CN1CC[C@@H](c2c(O)cc(O)c3c(=O)cc(-c4ccc(C(F)(F)F)cc4Cl)oc23)[C@@H]1CO is recorded as 0% (measured: Anemia; relapsed B-cell malignancies; oral, 200 mg, grade 3-4, intermittent dosing).
CNC(=O)c1cc(Oc2ccc(NC(=O)Nc3cc(C(C)(C)C)nn3-c3ccc4ncccc4c3)c(F)c2)ccn1 gave a related SAE of 2% (optic nerve disorder, NCI CTC v3.0; human patients; oral, all dose levels).
With COc1c(O)cc(O)c2c(=O)cc(-c3ccccc3)oc12 the Vz/F was 3490 ± 2170 L/kg (Sprague Dawley rat, plasma; oral, 10 g lyophilized powder/kg, high dose).
For COc1ccc(-c2c(-c3ccc(C#N)c(F)c3)nc(N3CCC(N)CC3)n(C)c2=O)cc1F, “treatment-related adverse event incidence” read 4% (measured: Dysgeusia; human patients; oral, dose not given, any grade, dose escalation, NG).
For Cc1ccc(F)c2cc(C(=O)N[C@@H]3CCC[C@H](N4CC[C@H](N(C)S(C)(=O)=O)C4)C3)[nH]c12, the plasma concentration was 3070 ng/mL (CD1 mouse, plasma; oral, 100 mg/kg, 2 h).
CC(C)C[C@@H]1NC(=O)CNC(=O)[C@H](CC(N)=O)NC(=O)[C@H](CCCNC(=N)N)NC(=O)[C@H]([C@@H](C)O)NC(=O)[C@@H]2CSSC[C@@H]3NC(=O)[C@H]([C@@H](C)O)NC(=O)CNC(=O)CNC(=O)[C@H](C(C)C)NC(=O)[C@@H]4CSSC[C@H](NC(=O)[C@H]([C@@H](C)O)NC(=O)[C@H](CSSC[C@H](NC(=O)[C@H](C(C)C)NC(=O)[C@@H]5CCCN5C1=O)C(=O)N[C@@H](CCCCN)C(=O)N[C@@H](CCC(=O)O)C(=O)N[C@@H]([C@@H](C)O)C(=O)N4)NC(=O)CNC(=O)[C@@H]1CCCN1C(=O)[C@H]([C@@H](C)O)NC(=O)[C@H](CC(N)=O)NC3=O)C(=O)N[C@@H](CO)C(=O)N[C@@H](Cc1c[nH]c3ccccc13)C(=O)N1CCC[C@H]1C(=O)N[C@@H](C(C)C)C(=O)N2 gave a remaining peptide of 53.4 ± 0.6% (HPLC; ammonium bicarbonate 0.1 M; 180 µM, 7 days, pH 9.0, 37 °C, deamidation stability).
C[C@]1(CO)Cc2ncn(-c3ccc(C#N)c(Cl)c3)c2C(=O)O1 has an AUC(0-inf) of 3.76 µM·h (human, plasma; 20 mg, first dose fasted).
The dose-normalised AUC(0-inf) of Cc1nc([C@@](C)(CC2CC2)NC(=O)c2cc(OCC(F)(F)F)c(C3CC3)cn2)no1 is reported as 729 kg·ng·h/mL/mg (C57BL/6 mice; oral, 2.8 mg/kg).
Under “volume of distribution”, CCOC(=O)C1=C[C@@H](OC(CC)CC)[C@H](NC(C)=O)[C@@H](N)C1 is recorded as 104 mL (Sprague-Dawley rat male, plasma and urine; oral, 30 mg/kg).
The dyspnoea incidence of CO[C@H]1C[C@@H]2CC[C@@H](C)[C@@](O)(O2)C(=O)C(=O)N2CCCC[C@H]2C(=O)O[C@H]([C@H](C)C[C@@H]2CC[C@@H](OC(=O)NCCOCCOCCOCCOCCOCCOCCOCCOCCC(=O)N3CCc4cc(Cn5nc(-c6ccc7oc(N)nc7c6)c6c(N)ncnc65)ccc4C3)[C@H](OC)C2)C[C@@H](O)[C@H](C)/C=C(\C)[C@@H](O)[C@@H](OC)C(=O)[C@H](C)C[C@H](C)/C=C/C=C/C=C/1C is reported as 41.7% (patients with advanced solid tumours; intravenous, 6 mg weekly, any grade).
C=CCNc1c(O)cc2c(O)c1C[C@@H](C)C[C@H](OC)[C@H](O)[C@@H](C)/C=C(\C)[C@H](OC(N)=O)[C@@H](OC)/C=C\C=C(/C)C(=O)N2 — result for “patients with back pain TEAE”: 0% (unresectable or metastatic STS, GIST, other; intravenous, 300 mg/m^2).
CCN(CCO)CCCC(C)Nc1ccnc2cc(Cl)ccc12 (stereo not drawn): “neutrophil decrease patients” 33% (newly diagnosed glioblastoma patients; oral, 200 mg/dose, grade 3, together with: radiotherapy and temozolomide).
The log K(PDMS-water) of Clc1ccc(-c2ccc(Cl)cc2Cl)cc1 is reported as 5.2 ± 0.05 (fresh water; 20 °C).
The IC50 of CCC(=O)N1CCN(C(=O)c2ccccc2)CC1 is reported as 3.98 µM (Plasmodium falciparum; 3D7).
CCN1[C@@H](C(=O)NC23CCC(C(=O)O)(CC2)CC3)[C@H](c2cccc(Cl)c2F)[C@]2(C(=O)Nc3cc(Cl)ccc32)C12CCCCC2: “grade ≥3 Neutropenia incidence” 23.8% (patients with advanced solid tumours; oral, dose not given, all doses).
Under “treatment-emergent adverse events”, CC(C)(O)c1cc(Nc2cc(Oc3cn(C4CC4)nc3C3CCOCC3)ccn2)ccn1 is recorded as 0% (measured: Cough; patients with advanced cancer; oral).
For CC(C)Nc1ccnc(Nc2cccc(-c3cccnc3)c2)n1, the blood chemistry was 3.3 g/dL (measured: albumin; mouse, blood; intraperitoneal, 3 mg/kg).
Under “literature range factor”, Clc1ccc(-c2cc(Cl)c(Cl)cc2Cl)cc1Cl is recorded as 3 (polyethylene-water partitioning; PCB compilation; relative to: maximum over minimum K).
Under “all-cause adverse events”, Cc1cccc(Cn2nc(C3CC3)c3c(NC(=O)c4cnc5cc(OCCN6CCN(C)CC6)ccn45)cccc32)n1 is recorded as 26.3% (CTCAE v4.03, measured: blood alkaline phosphatase increased; PD-1/PD-L1 inhibitor-refractory patients; oral, dose not given, together with: pembrolizumab IV every 3 weeks).
For CC1(C)C(/C=C(\Cl)C(F)(F)F)C1C(=O)OC(C#N)c1cccc(Oc2ccccc2)c1 (stereo not drawn), “enzyme contribution to clearance” read 0.47% (measured: CYP2C9; human, age 6 months).
With O=C(O)CCCOc1ccc(F)cc1-c1cc(-c2ccccc2C(F)(F)F)n(-c2ccccc2)n1 the leukocyte differential was 1 ± 0.3% (measured: Eosinophils; Crl:CD(SD) rats, female, blood; iv, 25 µg/kg, 14 days).
O=C(Nc1ccccc1)C1CCN(C(=O)Oc2cccnc2)CC1: “subjects with chest discomfort” 7.7% (adverse event reporting; healthy women; oral, 100 mg, 9 days).
